Assay results collected from several papers.
Compare with care: the assays were run in different laboratories. “And” joins repeats or separate records; there may be more than shown. Numbers after ± are the reported error.
OXSR1: Serine/threonine-protein kinase OSR1 (OXSR1, Homo sapiens, UniProt O95747)
Chain of UniProt O95747 (whole entry, looked up): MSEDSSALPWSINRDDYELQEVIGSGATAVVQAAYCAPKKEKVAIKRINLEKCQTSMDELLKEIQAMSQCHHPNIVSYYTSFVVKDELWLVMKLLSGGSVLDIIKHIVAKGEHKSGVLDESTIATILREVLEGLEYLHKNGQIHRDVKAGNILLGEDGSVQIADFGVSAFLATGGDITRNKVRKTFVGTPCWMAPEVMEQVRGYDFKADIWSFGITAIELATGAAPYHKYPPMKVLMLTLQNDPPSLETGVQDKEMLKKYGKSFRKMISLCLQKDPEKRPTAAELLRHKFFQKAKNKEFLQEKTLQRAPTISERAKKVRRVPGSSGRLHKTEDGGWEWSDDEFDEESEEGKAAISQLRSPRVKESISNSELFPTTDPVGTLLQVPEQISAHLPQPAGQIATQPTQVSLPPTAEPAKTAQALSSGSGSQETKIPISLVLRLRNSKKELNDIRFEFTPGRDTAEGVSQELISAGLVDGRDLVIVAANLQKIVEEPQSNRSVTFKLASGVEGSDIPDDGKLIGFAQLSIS
PKN3: Serine/threonine-protein kinase N3 (PKN3, Homo sapiens, UniProt Q6P5Z2)
Chain of UniProt Q6P5Z2 (whole entry, looked up): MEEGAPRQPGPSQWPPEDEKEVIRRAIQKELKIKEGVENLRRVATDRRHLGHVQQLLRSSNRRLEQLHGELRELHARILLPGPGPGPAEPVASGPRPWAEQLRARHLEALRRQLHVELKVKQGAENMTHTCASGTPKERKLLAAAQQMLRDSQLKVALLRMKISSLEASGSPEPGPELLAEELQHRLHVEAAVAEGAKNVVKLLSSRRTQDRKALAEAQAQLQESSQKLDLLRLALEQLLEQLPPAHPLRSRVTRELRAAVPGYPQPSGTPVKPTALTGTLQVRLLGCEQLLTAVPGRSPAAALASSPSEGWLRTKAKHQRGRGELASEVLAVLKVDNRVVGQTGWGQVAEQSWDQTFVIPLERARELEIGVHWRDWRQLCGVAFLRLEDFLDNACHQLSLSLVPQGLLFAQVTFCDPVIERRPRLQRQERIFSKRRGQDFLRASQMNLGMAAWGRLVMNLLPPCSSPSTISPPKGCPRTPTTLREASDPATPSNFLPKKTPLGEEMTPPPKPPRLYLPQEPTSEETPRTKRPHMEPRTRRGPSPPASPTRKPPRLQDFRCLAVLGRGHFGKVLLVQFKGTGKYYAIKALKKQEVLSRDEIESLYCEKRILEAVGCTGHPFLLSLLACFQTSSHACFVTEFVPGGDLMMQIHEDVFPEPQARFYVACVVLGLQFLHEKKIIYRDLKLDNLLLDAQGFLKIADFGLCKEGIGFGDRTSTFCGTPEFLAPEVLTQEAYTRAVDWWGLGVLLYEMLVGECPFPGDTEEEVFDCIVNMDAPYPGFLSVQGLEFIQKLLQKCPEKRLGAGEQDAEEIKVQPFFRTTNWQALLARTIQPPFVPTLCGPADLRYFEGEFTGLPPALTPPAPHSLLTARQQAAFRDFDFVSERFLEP
MUSK: Muscle, skeletal receptor tyrosine-protein kinase (MUSK, Homo sapiens, UniProt O15146)
Chain of UniProt P11678 (whole entry, looked up): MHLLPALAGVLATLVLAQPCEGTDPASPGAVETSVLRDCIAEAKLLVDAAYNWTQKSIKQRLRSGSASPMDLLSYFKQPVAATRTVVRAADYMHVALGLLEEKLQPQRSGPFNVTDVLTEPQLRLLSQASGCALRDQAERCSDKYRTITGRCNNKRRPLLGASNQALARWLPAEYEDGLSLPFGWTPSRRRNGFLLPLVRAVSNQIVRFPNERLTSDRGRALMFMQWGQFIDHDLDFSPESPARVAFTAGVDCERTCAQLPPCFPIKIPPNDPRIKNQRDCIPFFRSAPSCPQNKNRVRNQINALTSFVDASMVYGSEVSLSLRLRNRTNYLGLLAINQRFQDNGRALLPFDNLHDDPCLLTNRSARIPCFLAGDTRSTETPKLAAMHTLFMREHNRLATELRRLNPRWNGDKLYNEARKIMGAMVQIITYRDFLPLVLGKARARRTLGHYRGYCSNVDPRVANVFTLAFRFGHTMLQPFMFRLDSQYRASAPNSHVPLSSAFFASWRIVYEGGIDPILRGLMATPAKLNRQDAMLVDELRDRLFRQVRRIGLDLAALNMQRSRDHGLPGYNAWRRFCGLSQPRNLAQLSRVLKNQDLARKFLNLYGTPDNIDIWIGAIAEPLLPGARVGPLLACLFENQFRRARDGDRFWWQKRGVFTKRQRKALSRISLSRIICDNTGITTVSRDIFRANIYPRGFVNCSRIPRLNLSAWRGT
Chain of UniProt O15146 (whole entry, looked up): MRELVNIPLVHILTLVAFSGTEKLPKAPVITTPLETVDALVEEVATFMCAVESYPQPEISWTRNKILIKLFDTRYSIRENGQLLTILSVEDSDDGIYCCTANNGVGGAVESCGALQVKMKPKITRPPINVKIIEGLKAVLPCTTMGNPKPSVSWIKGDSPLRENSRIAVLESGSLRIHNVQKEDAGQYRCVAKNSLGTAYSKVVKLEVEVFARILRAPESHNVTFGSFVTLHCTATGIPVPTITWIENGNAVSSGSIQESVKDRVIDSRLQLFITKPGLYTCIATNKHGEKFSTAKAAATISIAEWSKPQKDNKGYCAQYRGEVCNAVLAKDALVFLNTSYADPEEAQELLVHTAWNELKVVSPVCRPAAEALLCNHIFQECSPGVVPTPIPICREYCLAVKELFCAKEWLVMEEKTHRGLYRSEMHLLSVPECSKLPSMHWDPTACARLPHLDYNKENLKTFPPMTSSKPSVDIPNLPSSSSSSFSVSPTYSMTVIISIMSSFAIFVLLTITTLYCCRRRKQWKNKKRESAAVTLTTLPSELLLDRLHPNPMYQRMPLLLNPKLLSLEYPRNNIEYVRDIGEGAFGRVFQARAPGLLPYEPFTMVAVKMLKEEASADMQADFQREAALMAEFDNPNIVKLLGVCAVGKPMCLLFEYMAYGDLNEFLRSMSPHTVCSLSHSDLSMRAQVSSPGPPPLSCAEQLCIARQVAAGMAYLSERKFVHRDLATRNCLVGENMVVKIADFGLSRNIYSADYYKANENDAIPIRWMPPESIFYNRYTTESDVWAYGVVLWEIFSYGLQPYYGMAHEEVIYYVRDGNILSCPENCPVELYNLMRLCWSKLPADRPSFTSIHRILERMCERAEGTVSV
Chain of UniProt Q14164 (whole entry, looked up): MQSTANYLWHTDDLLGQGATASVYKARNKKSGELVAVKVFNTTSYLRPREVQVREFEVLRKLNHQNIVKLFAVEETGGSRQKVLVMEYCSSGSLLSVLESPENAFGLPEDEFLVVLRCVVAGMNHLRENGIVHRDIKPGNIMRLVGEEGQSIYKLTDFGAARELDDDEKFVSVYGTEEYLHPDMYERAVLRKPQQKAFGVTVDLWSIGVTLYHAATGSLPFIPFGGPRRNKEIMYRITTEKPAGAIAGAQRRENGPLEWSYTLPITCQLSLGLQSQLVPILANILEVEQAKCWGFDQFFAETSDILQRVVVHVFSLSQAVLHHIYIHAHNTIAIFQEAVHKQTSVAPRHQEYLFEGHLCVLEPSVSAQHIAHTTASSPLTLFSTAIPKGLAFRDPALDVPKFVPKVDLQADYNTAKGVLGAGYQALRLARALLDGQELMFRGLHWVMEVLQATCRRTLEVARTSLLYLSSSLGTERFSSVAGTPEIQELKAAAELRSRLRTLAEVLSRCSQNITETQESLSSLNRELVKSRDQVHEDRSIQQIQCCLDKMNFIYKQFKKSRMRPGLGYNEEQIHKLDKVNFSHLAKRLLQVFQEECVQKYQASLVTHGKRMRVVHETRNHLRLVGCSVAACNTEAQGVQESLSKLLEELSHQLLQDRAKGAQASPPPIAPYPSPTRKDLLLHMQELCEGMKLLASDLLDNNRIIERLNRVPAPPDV
Chain of UniProt P80192 (whole entry, looked up): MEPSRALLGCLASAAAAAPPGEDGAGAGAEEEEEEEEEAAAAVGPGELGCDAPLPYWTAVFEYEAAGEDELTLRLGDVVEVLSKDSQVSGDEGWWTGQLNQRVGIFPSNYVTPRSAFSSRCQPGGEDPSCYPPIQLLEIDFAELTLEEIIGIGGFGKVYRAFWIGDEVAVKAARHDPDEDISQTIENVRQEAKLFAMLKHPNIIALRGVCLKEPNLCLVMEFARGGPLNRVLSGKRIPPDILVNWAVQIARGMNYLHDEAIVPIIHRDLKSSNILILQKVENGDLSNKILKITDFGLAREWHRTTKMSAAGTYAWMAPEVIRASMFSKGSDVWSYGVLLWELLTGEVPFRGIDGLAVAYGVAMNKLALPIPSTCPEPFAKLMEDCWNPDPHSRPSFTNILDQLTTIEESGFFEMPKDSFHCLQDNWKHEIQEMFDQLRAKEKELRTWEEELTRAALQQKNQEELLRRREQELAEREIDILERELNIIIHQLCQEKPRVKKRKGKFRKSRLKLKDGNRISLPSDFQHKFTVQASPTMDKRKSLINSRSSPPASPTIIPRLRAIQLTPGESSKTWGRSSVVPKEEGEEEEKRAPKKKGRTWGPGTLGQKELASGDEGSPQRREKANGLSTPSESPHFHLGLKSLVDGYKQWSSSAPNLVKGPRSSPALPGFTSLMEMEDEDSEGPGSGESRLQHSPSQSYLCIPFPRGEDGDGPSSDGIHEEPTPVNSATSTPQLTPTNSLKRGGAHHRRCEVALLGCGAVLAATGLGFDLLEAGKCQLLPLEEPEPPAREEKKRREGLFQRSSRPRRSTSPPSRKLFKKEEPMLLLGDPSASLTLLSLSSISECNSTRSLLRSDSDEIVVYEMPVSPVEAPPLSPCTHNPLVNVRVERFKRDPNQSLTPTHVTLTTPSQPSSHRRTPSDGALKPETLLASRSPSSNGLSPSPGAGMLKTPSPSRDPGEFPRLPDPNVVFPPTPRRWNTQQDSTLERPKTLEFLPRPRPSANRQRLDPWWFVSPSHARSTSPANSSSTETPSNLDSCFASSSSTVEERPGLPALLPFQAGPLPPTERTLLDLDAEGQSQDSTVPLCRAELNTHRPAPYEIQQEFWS

O=C1Nc2ccccc2C1=O  inhibition (THP-1; pyroptotic LDH release; 2 µM, 40 min, added: LPS then nigericin): 2.15%
O=C(NC1CCC1)c1ccc2nc(-c3cccc(NS(=O)(=O)NCCN4CCCCC4)c3)cn2c1  remaining activity (OXSR1; enzyme activity; 10 µM): 100%
C=CC(=O)N1CCC[C@@H](n2nc(-c3ccc(Oc4ccccc4)cc3)c3c(N)ncnc32)C1  remaining activity (PKN3; kinase activity, inhibitor, HotSpot radiometric; 100 nM, added: ATP 10 µM): 79.3 ± 0.3%
COc1cc(F)ccc1-c1ncnc(Nc2cccc(C[S@](C)(=N)=O)c2)n1  remaining activity (Dual specificity protein kinase CLK2 (CLK2, Homo sapiens, UniProt P49760); kinase activity; 10 µM, added: 10 µM ATP): 75%
CC#CC(=O)N1CCC[C@H]1c1nc(-c2ccc(C(=O)Nc3ccccn3)cc2)c2c(N)nccn12  remaining activity (Inhibitor of nuclear factor kappa-B kinase subunit epsilon (IKBKE, Homo sapiens, UniProt Q14164); kinase activity, inhibitor, HotSpot radiometric; 100 nM, added: ATP 10 µM): 106 ± 4.1%
CCN1CCN(Cc2ccc(NC(=O)c3ccc(C)c(/C=C/c4cnc5[nH]ccc5c4OC)c3)cc2C(F)(F)F)CC1  remaining activity (OXSR1; kinase activity; 1 µM): 100%
COc1ccc(F)cc1C(=O)NCc1ccc(-c2nn([C@@H](C)C(F)(F)F)c(N)c2C(N)=O)cc1  remaining activity (PKN3; kinase activity, inhibitor, HotSpot radiometric; 1000 nM, added: ATP at Km): 98.2 ± 1%
Cc1cc(Nc2cc(N3CCN(C)CC3)nc(Sc3ccc(NC(=O)C4CC4)cc3)n2)[nH]n1  remaining activity (Calcium/calmodulin-dependent protein kinase type IV (CAMK4, Homo sapiens, UniProt Q16566); kinase activity, KinaseProfiler; 0.03 µM, species human; relative to: control): 107%
Cc1cc(NC(=O)c2cccc(NC(=O)/C=C/CN(C)C)c2)ccc1Nc1nccc(-c2cccnc2)n1  remaining activity (Mitogen-activated protein kinase 8, phosphorylated (MAPK8, Homo sapiens, UniProt P45983); enzyme activity after dialysis, inhibitor; 10 µM, 2 days, unit not given; relative to: no inhibitor): 0.049
NC/C(=C\F)COc1cccc(Cn2c(=S)[nH]c(=O)c3[nH]cnc32)c1  remaining activity (Eosinophil peroxidase (Homo sapiens, UniProt P11678); H2O2 electrode; 10 µM; relative to: control): 81% and 84.3% and 107%
CNc1ncc2c(/C=C/C(=O)N3CCC(OC)CC3)nn(Cc3cccc(C(F)(F)F)c3)c2n1  remaining activity (MUSK; kinase activity, inhibitor; 1 µM; relative to: untreated control): 91%
COc1cc(Nc2cnc(C#N)c(O[C@H](C)CN(C)C)n2)ncc1-c1cnn(C)c1  remaining activity (AMPK; radiometric; 1 µM): 12%
COc1cc(Cl)c(C(=O)N[C@@H](CN[C@H]2CC[C@@H](N)CC2)Cc2ccc(C#N)cc2)cc1-c1ccc(CN[C@H](C)c2ccc(C)cc2)o1  remaining activity (Transient receptor potential cation channel subfamily M member 7 (TRPM7, Homo sapiens, UniProt Q96QT4); enzyme activity, KinaseProfiler panel; 1 µM): 106%
CN1CCN(CCCCN2C(=O)CN(/N=C/c3ccc(-c4ccc(Cl)cc4)o3)C2=O)CC1  inhibition (THP-1; pyroptotic LDH release; 2 µM, 40 min, added: LPS then nigericin): 4.6%
COc1cc(-c2cncc3c2CN(C)Cc2cc(N4CCNCC4)ccc2-3)cc(OC)c1OC  remaining activity (Tyrosine-protein kinase ZAP-70 (ZAP70, Homo sapiens, UniProt P43403); kinase activity; 1 µM, human enzyme, added: ATP 10 µM; relative to: DMSO control): 108%
COc1cc(Nc2ncc3c(n2)-c2ccc(Cl)cc2C(c2c(F)cccc2OC)=NC3)ccc1C(=O)O  remaining activity (CSF1R; kinase activity; 1 µM): 52%
COc1cc(N2CCN(C)CC2)ccc1Nc1nc(N)n(C(=S)NCc2c(Cl)cccc2Cl)n1  remaining activity (OXSR1; enzyme activity; 10 µM; relative to: control): 12%
O=C1NC(=O)/C(=C/c2ccc(-c3ccc(F)cc3O)o2)S1  remaining activity (Mitogen-activated protein kinase kinase kinase 9 (MAP3K9, Homo sapiens, UniProt P80192); enzyme activity; 10 µM): 53%
O=C(O)c1ccc(Nc2ncc3c(n2)-c2ccc(Cl)cc2C(c2c(F)cccc2F)=NC3)cc1  remaining activity (human HIPK2(h); kinase activity; 1 µM): 112%
C=CC(=O)N1CCC[C@@H](n2nc(-c3ccc(Oc4ccccc4)cc3)c3c(N)ncnc32)C1  remaining activity (MUSK; 1 µM): 103%
COc1ccc(Cl)cc1-c1cc(=O)[nH]c(=S)n1CC(N)=O  remaining activity (Myeloperoxidase (MPO, Homo sapiens, UniProt P05164); 0.156 µM, 0.1 h): 102%
FC(F)c1nc2ccccc2n1-c1nc(N2CCOCC2)nc(N2CCOCC2)n1  remaining activity (AMPK; enzyme activity; 10 µM): 92%
Nc1ncnc2occ(-c3ccc(NC(=O)Nc4cc(C(F)(F)F)ccc4F)cc3)c12  remaining activity (Transient receptor potential cation channel subfamily M member 6 (TRPM6, Homo sapiens, UniProt Q9BX84); enzyme activity, inhibitor; 20 µM): 100%

A few entries again:
COc1cc(F)ccc1-c1ncnc(Nc2cccc(C[S@](C)(=N)=O)c2)n1  remaining activity (Dual specificity protein kinase CLK2 (CLK2, Homo sapiens, UniProt P49760); kinase activity; 10 µM, added: 10 µM ATP): 75%
CC#CC(=O)N1CCC[C@H]1c1nc(-c2ccc(C(=O)Nc3ccccn3)cc2)c2c(N)nccn12  remaining activity (Inhibitor of nuclear factor kappa-B kinase subunit epsilon (IKBKE, Homo sapiens, UniProt Q14164); kinase activity, inhibitor, HotSpot radiometric; 100 nM, added: ATP 10 µM): 106 ± 4.1%
